Published values from different studies.
Protocols differ between the studies behind these lines.
IL18BP: IL18BP (Homo sapiens, UniProt O95998)
B1: human RBMX; sequence looked up; chain MVEADRPGKLFIGGLNTETNEKALEAVFGKYGRIVEVLLMKDRETNKSRGFAFVTFESPADAKDAARDMNGKSLDGKAIKVEQATKPSFESGRRGPPPPPRSRGPPRGLRGGRGGSGGTRGPPSRGGHMDDGGYSMNFNMSSSRGPLPVKRGPPPRSGGPPPKRSAPSGPVRSSSGMGGRAPVSRGRDSYGGPPRREPLPSRRDVYLSPRDDGYSTKDSYSSRDYPSSRDTRDYAPPPRDYTYRDYGHSSSRDDYPSRGYSDRDGYGRDRDYSDHPSGGSYRDSYESYGNSRSAPPTRGPPPSYGGSSRYDDYSSSRDGYGGSRDSYSSSRSDLYSSGRDRVGRQERGLPPSMERGYPPPRDSYSSSSRGAPRGGGRGGSRSDRGGGRSRY
B2: human corneodesmosin; sequence looked up; chain KSIGTFSDPCKDPTRITSPNDPCLTGKGDSSGFSSYSGSSSSGSSISSARSSGGGSSGSSSGSSIAQGGSAGSFKPGTGYSQVSYSSGSGSSLQGASGSSQLGSSSSHSGNSGSHSGSSSSHSSSSSSFQFSSSSFQVGNGSALPTNDNSYRGILNPSQPGQSSSSSQTFGVSSSGQSVSSNQRPCSSDIPDSPCSGGPIVSHSGPYIPSSHSVSGGQRPVVVVVDQHGSGAPGVVQGPPCSNGGLPGKPCPPITSVDKSYGGYEVVGGSSDSYLVPGMTYSKGKIYPVGYFTKENPVKGSPGVPSFAAGPPISEGKYFSSNPIIPSQSAASSAIAFQPVGTGGVQLCGGGSTGSKGPCSPSSSRVPSSSSISSSSGLPYHPCGSASQSPCSPPGTGSFSSSSSSQSSGKIILQPCGSKSSSSGHPCMSVSSLTLTGGPDGSPHPDPSAGAKPCGSSSAGKIPCRSIRDILAQVKPLGPQLADPEVFLPQGELLNSP
B3: designed binder (Homo sapiens); chain MASAARLTMMWEEVTCPICLDPFVEPVSIECGHSFCQECISQVGKGGGSVCPVCRQRFLLKNLRPNRQLANMVNNLKEISQEAREGTQGERCAVHGERLHLFCEKDGKALCWVCAQSRKHRDHAMVPLEEAAQEYQEKLQVALGELRRKQELAEKLEVEIAIKRADWKKTVETQKSRIHAEFVQQKNFLVEEEQRQLQELEKDEREQLRILGEKEAKLAQQSQALQELISELDRRCHSSALELLQEVIIVLERSESWNLKDLDITSPELRSVCHVPGLKKMLRTCAGGGGSGGGGSGGGGSRLDAPSTIAVYRVSYTYAIIYWYSPLAEIDGFELTYGIKDVPGDRTTIKLTEDDGHYVIRHLKPDTEYEVSLISRRGDMSSNPAKITFKTGL
B4: CDC48A 1-190 (Arabidopsis thaliana, UniProt P54609); chain MSTPAESSDSKSKKDFSTAILERKKSPNRLVVDEAINDDNSVVSLHPATMEKLQLFRGDTILIKGKKRKDTVCIALADETCEEPKIRMNKVVRSNLRVRLGDVISVHQCPDVKYGKRVHILPVDDTVEGVTGNLFDAYLKPYFLEAYRPVRKGDLFLVRGGMRSVEFKVIETDPAEYCVVAPDTEIFCEG
B5: IL18 37-193 N50C/C74S/C104S/L174C (Homo sapiens, UniProt Q14116); chain YFGKLESKLSVIRCLNDQVLFIDQGNRPLFEDMTDSDSRDNAPRTIFIISMYKDSQPRGMAVTISVKSEKISTLSCENKIISFKEMNPPDNIKDTKSDIIFFQRSVPGHDNKMQFESSSYEGYFLACEKERDLFKLICKKEDELGDRSIMFTVQNED
B6: TNFSF4 51-183 (Homo sapiens, UniProt P23510); sequence looked up; chain QVSHRYPRIQSIKVQFTEYKKEKGFILTSQKEDEIMKVQNNSVIINCDGFYLISLKGYFSQEVNISLHYQKDEEPLFQLKKVRSVNSLMVASLTYKDKVYLNVTTDNTSLDDFHVNGGELILIHQNPGEFCVL
B7: IL18 37-193 C74S/C104S/I107C/C112S/N123C/C163S (Homo sapiens, UniProt Q14116); chain YFGKLESKLSVIRNLNDQVLFIDQGNRPLFEDMTDSDSRDNAPRTIFIISMYKDSQPRGMAVTISVKSEKCSTLSSENKIISFKEMCPPDNIKDTKSDIIFFQRSVPGHDNKMQFESSSYEGYFLASEKERDLFKLILKKEDELGDRSIMFTVQNED
Sequence of UniProt P12314 (whole entry, looked up): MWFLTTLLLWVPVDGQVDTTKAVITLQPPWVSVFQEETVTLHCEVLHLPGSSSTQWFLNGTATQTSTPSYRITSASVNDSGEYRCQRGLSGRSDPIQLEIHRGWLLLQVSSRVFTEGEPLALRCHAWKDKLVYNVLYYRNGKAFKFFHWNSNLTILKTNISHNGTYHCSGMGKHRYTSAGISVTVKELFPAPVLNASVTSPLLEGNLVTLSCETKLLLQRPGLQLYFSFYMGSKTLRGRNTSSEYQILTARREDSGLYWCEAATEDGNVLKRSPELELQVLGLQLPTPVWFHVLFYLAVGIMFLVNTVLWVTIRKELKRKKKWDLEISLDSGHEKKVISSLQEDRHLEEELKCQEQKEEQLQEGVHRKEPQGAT
Sequence of UniProt Q94JZ8 (whole entry, looked up): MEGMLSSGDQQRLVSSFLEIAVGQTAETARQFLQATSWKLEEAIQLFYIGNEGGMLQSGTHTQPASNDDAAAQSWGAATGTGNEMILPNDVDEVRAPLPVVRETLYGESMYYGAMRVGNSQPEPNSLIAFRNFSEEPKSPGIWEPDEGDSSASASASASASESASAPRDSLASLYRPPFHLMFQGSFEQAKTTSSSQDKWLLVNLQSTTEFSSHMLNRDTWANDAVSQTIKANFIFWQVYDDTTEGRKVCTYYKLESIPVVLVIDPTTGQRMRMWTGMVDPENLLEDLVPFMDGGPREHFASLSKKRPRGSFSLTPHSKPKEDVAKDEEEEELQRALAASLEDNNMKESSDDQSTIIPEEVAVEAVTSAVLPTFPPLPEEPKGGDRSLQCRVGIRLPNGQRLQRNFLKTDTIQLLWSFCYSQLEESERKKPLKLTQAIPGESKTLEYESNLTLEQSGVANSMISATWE
Sequence of UniProt Q9UDY8 (whole entry, looked up): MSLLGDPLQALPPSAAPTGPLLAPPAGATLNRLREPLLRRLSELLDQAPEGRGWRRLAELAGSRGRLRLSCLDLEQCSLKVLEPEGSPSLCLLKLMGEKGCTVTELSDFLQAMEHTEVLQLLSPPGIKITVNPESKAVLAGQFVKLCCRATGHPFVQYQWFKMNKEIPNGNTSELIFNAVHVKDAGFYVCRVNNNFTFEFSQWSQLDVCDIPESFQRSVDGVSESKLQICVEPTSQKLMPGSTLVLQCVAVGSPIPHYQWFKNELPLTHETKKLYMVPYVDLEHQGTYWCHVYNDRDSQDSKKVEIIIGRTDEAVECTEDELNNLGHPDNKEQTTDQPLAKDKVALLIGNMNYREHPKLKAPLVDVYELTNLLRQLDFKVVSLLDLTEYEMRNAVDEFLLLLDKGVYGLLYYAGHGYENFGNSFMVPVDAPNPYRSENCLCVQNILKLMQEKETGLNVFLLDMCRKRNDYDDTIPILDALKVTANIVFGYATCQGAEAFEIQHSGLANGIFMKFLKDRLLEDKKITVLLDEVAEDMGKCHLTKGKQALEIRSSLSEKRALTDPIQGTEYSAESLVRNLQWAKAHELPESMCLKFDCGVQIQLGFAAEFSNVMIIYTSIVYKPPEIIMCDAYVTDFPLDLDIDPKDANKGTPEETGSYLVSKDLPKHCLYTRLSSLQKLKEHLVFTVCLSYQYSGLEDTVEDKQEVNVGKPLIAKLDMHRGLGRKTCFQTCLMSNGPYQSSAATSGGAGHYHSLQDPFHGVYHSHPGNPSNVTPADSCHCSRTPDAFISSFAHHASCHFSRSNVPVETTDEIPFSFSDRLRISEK

Substance	tested on	test	test system	setting	scale	quantity	result
B1 (human RBMX)	CYB5R4 knockout human cells	PP6 interaction, 3xFLAG-PP6C IP-MS		concentration not given	baseline: CYB5R4 KO over parental	log2 fold change	-0.47
MBL-A mature, hydroxylysine, hydroxyproline in collagen (Rattus norvegicus, UniProt P19999)	Masp2 S613A (Rattus norvegicus)	SPR		single-site model		koff	0.00062 s⁻¹
B2 (human corneodesmosin)	PP6C (human)	co-immunoprecipitation, IP-MS	CYB5R4 knockout cells	concentration not given	baseline: CYB5R4 knockout over parental	log2 fold change	0.29
YIKTPLGTFPNRHGC (engineered peptide)	VPS35/VPS26A/VPS29 retromer complex (Homo sapiens)	SPR	peptide			koff	0.002 s⁻¹
B3 (designed binder)	MALT1 (Homo sapiens, UniProt Q9UDY8)	BLI	designed binder			koff	0.0693 s⁻¹
B4 (CDC48A 1-190)	PUX7 171-468 (Arabidopsis thaliana, UniProt Q94JZ8)	BLI		25 °C		koff	6e-05 s⁻¹
B5	IL18BP	SPR				koff	4.8e-05 s⁻¹
B6 (TNFSF4 51-183)	TNFRSF4 29-170 D124A (Homo sapiens, UniProt P43489)	SPR				koff	0.032 s⁻¹
EGLN1 fragment	HIF1A CODD peptide 556-574, C-terminal amide (Homo sapiens)	BLI				koff	0.037 s⁻¹
B7	IL18BP	SPR				koff	2.1e-05 s⁻¹
trastuzumab IgG1 (Homo sapiens)	FCGR1A (Homo sapiens, UniProt P12314)	SPR				koff	0.00049 s⁻¹

Some of these lines once more:
Substance	tested on	test	test system	setting	scale	quantity	result
YIKTPLGTFPNRHGC (engineered peptide)	VPS35/VPS26A/VPS29 retromer complex (Homo sapiens)	SPR	peptide			koff	0.002 s⁻¹
